# Results from different studies.
# Each numbered part is a random draw from the data of one study; scales do not carry over between parts. ± gives the spread as reported.

# Sample 1
# Organism: VSVΔG with SARS-CoV-2 spike
# Effect on: pseudovirus infection
# Strain: Wuhan variant
# Tested at: 10 µM
Structure (SMILES),inhibition
Cc1ccccc1NC(=O)N1c2ccccc2CC1c1noc(C2CCOCC2)n1 (stereo not shown),39%
c1ccc(Nc2nccc(-c3cccnc3)n2)cc1,41%
CC(=O)c1cc2cc3c4c(c2oc1=O)CCCN4CCC3,75%
CNC(=O)C(C#N)(Cc1cc(Cl)cc2c1OCOC2)Cc1cc(Cl)cc2c1OCOC2,88%
N#CC(C#N)=NNc1ccc2c(c1)OCCO2,45%
CCCCN1COc2c(cc(Cl)c3cccnc23)C1,59%
FC(F)(F)c1cc(NC(=S)N/N=C/c2ccccn2)cc(C(F)(F)F)c1,75%
COc1ccc(N2CCN(C(=O)c3nc(S(C)(=O)=O)ncc3Cl)CC2)cc1,45%

# Further values, each from its own experiment
# rep papain-like protease: Replicase polyprotein 1ab, papain-like protease (rep, Severe acute respiratory syndrome coronavirus 2, UniProt P0DTD1)
# rep nsp14: Replicase polyprotein 1ab, nsp14 (rep, Severe acute respiratory syndrome coronavirus 2, UniProt P0DTD1)
SMILES,target or system,test,test system,setting,how to read,endpoint,result
CCC(CC)COC(=O)[C@H](C)N[P@](=O)(OC[C@H]1O[C@@](C#N)(c2ccc3c(N)ncnn23)[C@H](O)[C@@H]1O)Oc1ccccc1,SARS-CoV-2,,"Calu-3, Delta",,,EC50,300 ± 40 nM
O=C(O)/C=C/c1ccc(Cn2ccnc2)cc1,rep papain-like protease,,,"concentration not given, C111S mutant",relative to: positive control,activity,21.1%
O=C(NC1CCN(c2ncnc3[nH]cnc23)CC1)c1cccc(S(=O)(=O)N2CCCC2)c1,rep nsp14,"NSP14 enzyme activity, inhibitor",,12.5 µM,,inhibition,82.7%
CC(C)Nc1nc2cc(Cl)c(Cl)cc2n1[C@H]1O[C@@H](CO)[C@H](O)[C@@H]1O,SARS-CoV-2,infectious virus yield,"Vero C1008, Omicron BA.1",48 h,,EC50,3000 ± 130 nM
N#C[C@@]1(n2ccc(N)nc2=O)O[C@H](CO)[C@@H](O)[C@H]1O,SARS-CoV-2,viral replication,"Vero, Alpha",,,EC90,4800 ± 30 nM
Cc1ccc(NS(=O)(=O)c2cccc(C(=O)NC3CCN(c4ncnc5[nH]cnc45)CC3)c2)cc1,rep nsp14,,,0.1953 µM,,inhibition,-2.11%
O=c1[nH]cnc2c([C@@H]3N[C@H](CO)[C@@H](O)[C@H]3O)c[nH]c12,SARS-CoV-2,infectious virus yield,"Vero C1008, Omicron BA.1",48 h,,EC50,~650 nM
Cl.N[C@@H](Cc1ccccc1)C(=O)N1C/C(=C/c2ccc(Cl)c(Cl)c2)C(=O)/C(=C\c2ccc(Cl)c(Cl)c2)C1,rep papain-like protease,,,"concentration not given, C111S mutant",relative to: positive control,activity,27.8%

# A few entries again (sample 1):
Structure (SMILES),inhibition
N#CC(C#N)=NNc1ccc2c(c1)OCCO2,45%
CCCCN1COc2c(cc(Cl)c3cccnc23)C1,59%
